# Results collected from several papers.
# Numbered parts are unrelated; each lists some results of a single study.

# Set 1
# Target: Histone acetyltransferase KAT6A, winged helix 2, GST fusion (KAT6A, Homo sapiens, UniProt Q92794, residues 85-181)
# Method: protein binding microarray
# Form: double-stranded DNA, one strand shown
# Matrix: in vitro
# Tested at: not given
# Setting: 8-mer, flanks averaged, mean of 2 arrays, mostly near background
# Relative to: not given
# Direction: higher = stronger binding
# Residues (chain): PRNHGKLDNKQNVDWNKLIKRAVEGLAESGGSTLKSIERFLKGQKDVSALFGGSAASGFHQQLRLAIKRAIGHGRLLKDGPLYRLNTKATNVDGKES
Oligonucleotide,E-score
GGGTGAGA,-0.173
GACGGAAA,-0.0601
ATGCTTGG,-0.0266
ATCAATTG,0.114

# Set 2
# Target: Interferon regulatory factor 3, full length, phosphomimetic (IRF3, Homo sapiens, UniProt Q14653, residues 1-427, S386D/S396D/S398D/S402D/T404D/S405D)
# Method: protein-binding microarray
# Form: double-stranded DNA, one strand shown
# Matrix: in vitro
# Tested at: 2540 nM top
# Setting: 60-bp whole probe
# Added: salmon DNA 0.4 mg/ml
# Relative to: random background probes
# Direction: higher = stronger binding
# Constant ends, left off below: GCCTAGCAC … GTCTTGATTCGCTTGACGCTGCTG
# Target sequence (chain): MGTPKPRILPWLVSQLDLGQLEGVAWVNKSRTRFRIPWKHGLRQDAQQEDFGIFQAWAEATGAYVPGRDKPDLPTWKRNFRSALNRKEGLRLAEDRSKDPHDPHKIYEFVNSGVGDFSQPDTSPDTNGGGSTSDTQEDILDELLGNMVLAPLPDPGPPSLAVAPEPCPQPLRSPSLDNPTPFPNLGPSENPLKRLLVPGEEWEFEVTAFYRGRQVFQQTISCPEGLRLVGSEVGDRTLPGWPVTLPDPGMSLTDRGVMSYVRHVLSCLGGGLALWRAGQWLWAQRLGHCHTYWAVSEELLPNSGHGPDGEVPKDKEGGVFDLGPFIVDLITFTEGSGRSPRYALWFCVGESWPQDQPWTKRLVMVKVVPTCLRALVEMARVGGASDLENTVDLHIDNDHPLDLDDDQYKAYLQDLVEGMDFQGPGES
Oligonucleotide,fitted relative affinity [z-score]
TTAGATTTCCGGTATCGATTAGTGCTA,2.05
AACGGTATCCTTTTCCTGACGTGCTAG,7.54
AGGCTCATACATCTGGGTGGGTGCTAG,-0.261
TTAGGTCTCGGTCCCGGTTAGTGCTAG,-0.0499
TGAAAATTCTAATTAGAATTGTGCTAG,0.342

# Set 3
# Target: Sal-like protein 4, full length isoform B (SALL4, Homo sapiens, UniProt Q9UJQ4-2, residues 1-616)
# Method: universal PBM
# Form: double-stranded DNA, one strand shown
# Matrix: in vitro
# Tested at: not given
# Setting: 8-mer, flanks averaged, mean of replicates
# Direction: higher = stronger binding
Oligonucleotide,E-score
AAGGGTGT,0.00113
AGAGGTCG,-0.0956
GATGGCCA,-0.0221
CAAGCGCG,-0.0468

# Mixed results
Substance,target,assay,system,setting,how to read,measurement,result
"PhoQ, residues 284 288 289 292 302 303 NLMGRA","PhoP, residues 12 14 15 18 19 AGCRL (Escherichia coli, UniProt P23836)","Sort-seq, refers to: YFP reporter",E. coli,"PhoQ-PhoP variant library, added: 10 µM Mg2+","relative to: high Mg2+ state, higher = stronger signaling",fold induction,15.3

# For quick reference, copied from above (set 2):
Oligonucleotide,fitted relative affinity [z-score]
TTAGGTCTCGGTCCCGGTTAGTGCTAG,-0.0499
TGAAAATTCTAATTAGAATTGTGCTAG,0.342
